{"data": "Experimental data pooled from the literature", "note": "Parts stem from different laboratories: compare values within a part only."}
{"data": "Sample 1", "target": "Fragile X messenger ribonucleoprotein 1, C-terminal low-complexity region (Fmr1, Mus musculus, UniProt P35922)", "method": "RNA Bind-n-Seq", "molecule type": "RNA", "medium": "in vitro", "tested at": "200 nM", "notes": "whole 134-nt RNA, ends assumed", "together with": "150 mM LiCl", "reference": "input library", "reading": "higher = stronger binding", "library": "7-deaza-guanosine replaces G"}
{"Strand": "GGGAGUUCUACAGUCCGACGAUCCACAGACAACACGCACCCACACAGACACAGAGGGAAGGGGUUGGGAUGGGGACAGGGUGCACAGCAGGGCGUGGUAGGACCCCAGCCCCUUGGAAUUCUCGGGUGUCAAGG", "log2 enrichment": 0.154}
{"Strand": "GGGAGUUCUACAGUCCGACGAUCCAAGUCCUGUGCUACACAUCGUAUGUACCGAAUCGGCCCCGGGCCCCGGGCCCCGGAAAGUAUUAUGUUACGCCGUUCGGAUCUGCACUUUGGAAUUCUCGGGUGUCAAGG", "log2 enrichment": -1.66}
{"Strand": "GGGAGUUCUACAGUCCGACGAUCAAGUCCUGUGCUACACAUCGUAUGUACCGAAUCAAACCCAAACCCAAAUUUUUAAAAAAGUAUUAUGUUACGCCGUUCGGAUCUGCACUUUGGAAUUCUCGGGUGUCAAGG", "log2 enrichment": 0.551}
{"data": "Sample 2", "target": "Sal-like protein 4, full length isoform A (SALL4, Homo sapiens, UniProt Q9UJQ4, residues 1-1053)", "method": "universal PBM", "molecule type": "double-stranded DNA, one strand shown", "medium": "in vitro", "tested at": "600 nM", "notes": "8-mer, flanks averaged, mean of replicates", "reading": "higher = stronger binding", "chain of UniProt Q9UJQ4 (whole entry, looked up)": "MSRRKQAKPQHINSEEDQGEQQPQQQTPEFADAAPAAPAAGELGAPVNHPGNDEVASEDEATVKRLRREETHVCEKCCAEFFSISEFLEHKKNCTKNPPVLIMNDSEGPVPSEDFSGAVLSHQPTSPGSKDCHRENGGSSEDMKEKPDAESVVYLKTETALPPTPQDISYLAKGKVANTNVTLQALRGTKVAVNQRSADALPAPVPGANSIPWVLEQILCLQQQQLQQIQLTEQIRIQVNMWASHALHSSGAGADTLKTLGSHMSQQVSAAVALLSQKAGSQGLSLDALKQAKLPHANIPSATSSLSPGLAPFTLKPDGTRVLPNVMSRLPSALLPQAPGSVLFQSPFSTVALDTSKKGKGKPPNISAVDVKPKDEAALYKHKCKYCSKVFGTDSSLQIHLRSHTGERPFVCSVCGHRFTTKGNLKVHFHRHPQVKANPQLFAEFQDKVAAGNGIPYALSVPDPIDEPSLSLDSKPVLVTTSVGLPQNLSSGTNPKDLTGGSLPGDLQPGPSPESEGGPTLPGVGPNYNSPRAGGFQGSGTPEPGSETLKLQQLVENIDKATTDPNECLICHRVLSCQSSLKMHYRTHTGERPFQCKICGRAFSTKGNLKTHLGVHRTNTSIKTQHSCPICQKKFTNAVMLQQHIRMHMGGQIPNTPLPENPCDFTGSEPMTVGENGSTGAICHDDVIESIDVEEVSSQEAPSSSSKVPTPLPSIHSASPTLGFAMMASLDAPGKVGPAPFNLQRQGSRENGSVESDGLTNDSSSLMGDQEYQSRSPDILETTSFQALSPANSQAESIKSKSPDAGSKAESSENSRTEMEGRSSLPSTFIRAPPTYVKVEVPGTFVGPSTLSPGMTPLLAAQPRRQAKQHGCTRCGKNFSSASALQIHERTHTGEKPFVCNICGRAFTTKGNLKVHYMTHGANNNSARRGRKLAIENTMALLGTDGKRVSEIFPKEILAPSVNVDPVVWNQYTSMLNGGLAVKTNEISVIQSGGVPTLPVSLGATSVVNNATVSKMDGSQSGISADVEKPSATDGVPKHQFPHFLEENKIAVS"}
{"Strand": "AGAGCGGA", "E-score": 0.0305}
{"Strand": "CGATTTGA", "E-score": 0.0805}
{"Strand": "CAAGGTAC", "E-score": 0.0566}
{"Strand": "CGAAGCGA", "E-score": -0.248}
{"Strand": "GAACCCGC", "E-score": -0.293}
{"Strand": "CCTGTCGC", "E-score": -0.287}
{"data": "Sample 3", "target": "Histone acetyltransferase KAT6A, winged helix 2, GST fusion (KAT6A, Homo sapiens, UniProt Q92794, residues 85-181)", "method": "protein binding microarray", "molecule type": "double-stranded DNA, one strand shown", "medium": "in vitro", "tested at": "not given", "notes": "8-mer, flanks averaged, mean of 2 arrays, mostly near background", "reference": "not given", "reading": "higher = stronger binding", "Target sequence (chain)": "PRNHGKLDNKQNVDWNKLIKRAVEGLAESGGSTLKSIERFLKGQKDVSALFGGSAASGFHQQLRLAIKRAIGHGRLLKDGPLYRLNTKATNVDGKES"}
{"Strand": "AGGTATAC", "E-score": -0.0322}
{"Strand": "GTACTACA", "E-score": -0.0764}
{"Strand": "CAAAACTA", "E-score": 0.114}
{"Strand": "AGTATCCG", "E-score": 0.0549}
{"Strand": "TCCGGAAA", "E-score": 0.0363}
{"Strand": "ACTTGAAT", "E-score": -0.0289}
{"data": "Mixed results"}
{"Substance": "YWHAE (Homo sapiens, UniProt P62258)", "tested on": "YWHAZ (Homo sapiens, UniProt P63104)", "assay": "cross-linking MS", "test system": "cell fractions", "conditions": "together with: DHSO", "quantity": "cross-linked residues", "value": "E25 to D20"}
{"Substance": "PhoQ, residues 284 288 289 292 302 303 SVTLVV", "tested on": "PhoP, residues 12 14 15 18 19 NQGLL (Escherichia coli, UniProt P23836)", "assay": "Sort-seq, measured: YFP reporter", "test system": "E. coli", "conditions": "PhoQ-PhoP variant library, together with: 10 µM Mg2+", "how to read": "reference: high Mg2+ state, higher = stronger signaling", "quantity": "fold induction", "value": 2.11}
{"note": "For quick reference, copied from above (mixed results):"}
{"Substance": "YWHAE (Homo sapiens, UniProt P62258)", "tested on": "YWHAZ (Homo sapiens, UniProt P63104)", "assay": "cross-linking MS", "test system": "cell fractions", "conditions": "together with: DHSO", "quantity": "cross-linked residues", "value": "E25 to D20"}
{"Substance": "PhoQ, residues 284 288 289 292 302 303 SVTLVV", "tested on": "PhoP, residues 12 14 15 18 19 NQGLL (Escherichia coli, UniProt P23836)", "assay": "Sort-seq, measured: YFP reporter", "test system": "E. coli", "conditions": "PhoQ-PhoP variant library, together with: 10 µM Mg2+", "how to read": "reference: high Mg2+ state, higher = stronger signaling", "quantity": "fold induction", "value": 2.11}
